Experimental data collected from several papers.
Every numbered part comes from another study and shows a few of its results, in no order. Changes are numbered by the printed parent chain.
UniProt Q96SB4, sequence (whole entry, looked up): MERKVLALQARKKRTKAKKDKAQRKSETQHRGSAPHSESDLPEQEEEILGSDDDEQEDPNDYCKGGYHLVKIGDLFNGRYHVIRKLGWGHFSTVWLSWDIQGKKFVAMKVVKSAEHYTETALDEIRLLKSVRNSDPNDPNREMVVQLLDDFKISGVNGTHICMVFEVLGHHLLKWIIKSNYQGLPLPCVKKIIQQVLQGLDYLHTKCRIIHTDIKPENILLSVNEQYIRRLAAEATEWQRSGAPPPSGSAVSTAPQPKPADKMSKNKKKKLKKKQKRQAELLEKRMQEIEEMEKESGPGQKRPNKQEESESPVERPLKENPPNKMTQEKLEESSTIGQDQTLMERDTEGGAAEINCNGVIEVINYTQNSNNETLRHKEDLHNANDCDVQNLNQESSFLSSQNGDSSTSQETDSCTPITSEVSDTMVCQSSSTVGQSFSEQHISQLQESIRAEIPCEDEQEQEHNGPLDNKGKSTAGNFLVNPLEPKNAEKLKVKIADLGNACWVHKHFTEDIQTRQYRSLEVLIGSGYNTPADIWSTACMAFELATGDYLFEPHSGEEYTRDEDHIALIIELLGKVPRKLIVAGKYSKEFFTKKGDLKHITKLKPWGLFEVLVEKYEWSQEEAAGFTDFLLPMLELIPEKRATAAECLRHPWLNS

Block 1
Target: PABPC1L2, full length, GST fusion (mouse, UniProt A0ABA7IW68)
Technique: RNAcompete
Form: RNA
Sample: in vitro
Concentration: 20 nM
Notes: 7-mer, probes averaged, single round
Reference: mean of 7-mers
Reading: higher = stronger binding
Endpoint: 7-mer Z-score
Construct (chain): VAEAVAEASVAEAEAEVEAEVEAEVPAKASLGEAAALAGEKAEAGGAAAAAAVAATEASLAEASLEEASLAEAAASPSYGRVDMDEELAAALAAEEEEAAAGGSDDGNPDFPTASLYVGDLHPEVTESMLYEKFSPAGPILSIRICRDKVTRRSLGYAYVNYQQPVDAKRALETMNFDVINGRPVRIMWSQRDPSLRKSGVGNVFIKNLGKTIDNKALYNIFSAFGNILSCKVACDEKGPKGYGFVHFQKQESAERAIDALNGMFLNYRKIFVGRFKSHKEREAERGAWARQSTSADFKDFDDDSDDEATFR
UCACGAC: -0.195
CAGCCUA: -0.327
UACUAAU: -0.175
AGGCUGG: 0.331
GAUCCAC: -0.193
UGGGCCG: -0.182
CCCGUGC: -0.335
AAUCGAC: 0.215

Block 2
Target: Ras GTPase-activating protein-binding protein 1, full length (G3BP1, Homo sapiens, UniProt Q13283)
UniProt Q13283, sequence (whole entry, looked up): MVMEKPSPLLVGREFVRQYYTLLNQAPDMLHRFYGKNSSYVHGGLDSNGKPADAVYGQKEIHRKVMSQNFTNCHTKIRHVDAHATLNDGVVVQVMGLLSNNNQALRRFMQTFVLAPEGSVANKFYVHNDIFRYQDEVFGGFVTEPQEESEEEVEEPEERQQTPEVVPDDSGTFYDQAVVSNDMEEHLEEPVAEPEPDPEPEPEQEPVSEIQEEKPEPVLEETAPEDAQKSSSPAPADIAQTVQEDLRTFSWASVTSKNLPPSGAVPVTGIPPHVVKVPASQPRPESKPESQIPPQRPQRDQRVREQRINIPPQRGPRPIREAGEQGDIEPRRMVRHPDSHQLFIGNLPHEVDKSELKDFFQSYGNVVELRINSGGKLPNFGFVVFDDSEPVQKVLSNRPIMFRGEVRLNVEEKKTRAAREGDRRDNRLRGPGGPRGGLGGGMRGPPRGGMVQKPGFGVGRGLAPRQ
Technique: RNA Bind-n-Seq
Form: RNA
Sample: in vitro
Concentration: 200 nM
Notes: whole 134-nt RNA, ends assumed
Together with: 150 mM LiCl
Reference: input library
Reading: higher = stronger binding
Endpoint: log2 enrichment
Library: 7-deaza-guanosine replaces G
Constant ends, left off below: GGGAGUUCUACAGUCCGACGAUC … UGGAAUUCUCGGGUGUCAAGG
GUCCUGUGCUACACAUCGUAUGUACCGAAUCGGGUUUUUGGGGUUUUUGGGGUUUUUGGAAAGUAUUAUGUUACGCCGUUCGGAUCUGCA: -0.111
CACAGACAACACGCACCCACACAGACACAGAGGGAAGGGGUUGGAAAGGGGACAGGGUGCACAGCAGGGCGGGGUAGGACCCCAGCCCCU: -0.408
ACCAUGCAGGUGGGCAUCUUUGGGAAGUGGGGCAAGGGGGGGAUAGGGAGGGGGGUAACACUUUGGGAACAGGUGGUCAAAGGUCGUUUC: -0.0308
GUCCUGUGCUACACAUCGUAUGUACCGAAUCGGGGAAAAAGGGGAAAAAGGGGAGGGGAAAGUAUUAUGUUACGCCGUUCGGAUCUGCAC: 0.0966
AGUCCUGUGCUACACAUCGUAUGUACCGAAUCGGGUUUUUGGGUUUGGGAAAAAGGGAAAGUAUUAUGUUACGCCGUUCGGAUCUGCACU: -1.13
CUCAAGUCCUGUGCUACACAUCGUAUGUACCGAAUCGGCCGGGGCCGGGGCCGGAAAGUAUUAUGUUACGCCGUUCGGAUCUGCACUUCC: 0.00439
UCAAGUCCUGUGCUACACAUCGUAUGUACCGAAUCGGGCCGGGCCGGGGCCGGGGAAAGUAUUAUGUUACGCCGUUCGGAUCUGCACUUC: -0.168
UGGCCCUGGUGGCAUGCGGGGAGGAAGAGGUGGCCUCAUGGAUCGUGGUGGUCCCGGUGGAAUGUUCAGAGGAGGCCGUGGUGGAGACAG: 0.135

Block 3
Target: CEP164, C-terminal peptide (human)
Technique: DHFR complementation, deep sequencing
Sample: yeast
Notes: single substitutions, model-inferred values
Reference: wild type
Reading: higher = weaker binding
Endpoint: binding free energy change
Starting sequence: PDZK1, PDZ domain 2 (human); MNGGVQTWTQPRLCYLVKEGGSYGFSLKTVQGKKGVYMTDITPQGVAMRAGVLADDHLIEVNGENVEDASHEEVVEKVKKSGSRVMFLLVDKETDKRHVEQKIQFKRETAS; partner HNRVKVYRF
R84Q: -0.051 kcal/mol
S22F: -0.0314 kcal/mol
E108P: -0.0756 kcal/mol
M48P: 1.66 kcal/mol
V66H: 0.547 kcal/mol
T109G: -0.312 kcal/mol
A54Q: -0.228 kcal/mol
V85W: 1.81 kcal/mol

Single results of other studies
Cc1ccc(S(=O)(=O)/C=C/C#N)cc1 — remaining activity (SRSF protein kinase 1 (SRPK1, Homo sapiens, UniProt Q96SB4); enzyme activity, inhibitor; 0.5 µM; reference: control): 99.7%

A few entries again (block 2):
CACAGACAACACGCACCCACACAGACACAGAGGGAAGGGGUUGGAAAGGGGACAGGGUGCACAGCAGGGCGGGGUAGGACCCCAGCCCCU: -0.408
CUCAAGUCCUGUGCUACACAUCGUAUGUACCGAAUCGGCCGGGGCCGGGGCCGGAAAGUAUUAUGUUACGCCGUUCGGAUCUGCACUUCC: 0.00439
UGGCCCUGGUGGCAUGCGGGGAGGAAGAGGUGGCCUCAUGGAUCGUGGUGGUCCCGGUGGAAUGUUCAGAGGAGGCCGUGGUGGAGACAG: 0.135
GUCCUGUGCUACACAUCGUAUGUACCGAAUCGGGUUUUUGGGGUUUUUGGGGUUUUUGGAAAGUAUUAUGUUACGCCGUUCGGAUCUGCA: -0.111
